Assay results of several laboratories.
Every numbered part comes from another study and shows a few of its results, in no order. Positions count from the first letter of the parent shown.
Chain of UniProt Q8NE63 (whole entry, looked up): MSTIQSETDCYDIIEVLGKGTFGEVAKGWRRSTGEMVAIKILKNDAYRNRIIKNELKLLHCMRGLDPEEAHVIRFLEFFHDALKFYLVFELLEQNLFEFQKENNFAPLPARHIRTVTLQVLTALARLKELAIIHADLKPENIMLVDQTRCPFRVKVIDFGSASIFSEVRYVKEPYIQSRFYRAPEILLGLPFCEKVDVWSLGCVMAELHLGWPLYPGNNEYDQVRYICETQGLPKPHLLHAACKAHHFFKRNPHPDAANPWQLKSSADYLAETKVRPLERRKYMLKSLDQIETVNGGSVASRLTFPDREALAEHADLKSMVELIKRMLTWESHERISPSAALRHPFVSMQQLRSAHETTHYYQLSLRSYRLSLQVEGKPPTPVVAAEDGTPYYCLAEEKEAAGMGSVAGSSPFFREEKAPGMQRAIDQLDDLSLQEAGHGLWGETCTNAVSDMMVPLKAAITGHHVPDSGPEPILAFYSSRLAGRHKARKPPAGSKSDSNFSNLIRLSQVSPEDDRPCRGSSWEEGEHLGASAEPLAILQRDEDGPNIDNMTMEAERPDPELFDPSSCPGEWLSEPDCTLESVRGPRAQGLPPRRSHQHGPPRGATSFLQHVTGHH

Sample 1 — technique: aptamer microarray, sandwich; form: DNA with 2'F-ANA; sample: in vitro; concentration: 200 nM; with: Cy3 exosite-II aptamer, 400 nM; reading: higher = stronger binding; strand: GGTTGGTGTGGTTGG
Target: Prothrombin, mature alpha-thrombin (F2, Homo sapiens, UniProt P00734)
Setting: whole 15-mer aptamer, many near background
Modification | mean fluorescence intensity [a.u.]
2'F-ANA at 3 4 6 9 11 13 14 15 | 212
2'F-ANA at 1 2 5 6 7 8 9 11 15 | 81.5
2'F-ANA at 1 2 4 7 9 12 13 | 170
2'F-ANA at 1 2 4 6 8 9 10 11 12 | 54.7
2'F-ANA at 2 4 6 10 11 12 | 101
2'F-ANA at 3 4 8 10 11 13 15 | 204
2'F-ANA at 1 9 11 13 15 | 131
2'F-ANA at 2 6 7 8 11 12 13 | 513

Sample 2 — technique: protein binding microarray; form: double-stranded DNA, one strand shown; sample: in vitro; concentration: not given; reference: not given; reading: higher = stronger binding
Target: Histone acetyltransferase KAT6A, winged helix 2, GST fusion (KAT6A, Homo sapiens, UniProt Q92794, residues 85-181)
Setting: 8-mer, flanks averaged, mean of 2 arrays, mostly near background
Residues (chain): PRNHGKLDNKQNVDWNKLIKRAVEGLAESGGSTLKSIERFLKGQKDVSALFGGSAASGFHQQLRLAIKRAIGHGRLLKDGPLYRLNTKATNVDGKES
Strand | E-score
TACGTTAA | -0.127
CGACGTAA | -0.058
AAATAGAT | -0.0492
GAAAATCC | 0.0906
AAGTTTAA | -0.0641
ATAGACCA | -0.168
TATGGTGA | -0.16
ACGCCAGT | 0.0984

Sample 3 — target: CCND1, cyclin fold, Cln2 fusion (human); technique: yeast growth competition, sequencing; sample: yeast; setting: weak parent motif; reference: not given; reading: higher = stronger binding
Starting sequence: CDC6 docking peptide (human); TLKGRRLVFDNQL
Substitution | normalised enrichment score
TLKHRRLVFDNQL [G4H] | 0.237
TLKGRRLVFFNQL [D10F] | 0.00315
TLQGRRLVFDNQL [K3Q] | 0.591
YLKGRRLVFDNQL [T1Y] | -0.531
TLKGRRLVFDNHL [Q12H] | 0.344
TLKGRDLVFDNQL [R6D] | 0.257
TLKGRRAVFDNQL [L7A] | -0.127
TKKGRRLVFDNQL [L2K] | 0.511

Single results of other studies
Structure (SMILES) | target | observed | mode | concentration | reference | endpoint | result
CN([C@@H](Cc1ccc(OS(=O)(=O)c2cccc3cnccc23)cc1)C(=O)N1CCN(c2ccccc2)CC1)S(=O)(=O)c1cccc2cnccc12 | Homeodomain-interacting protein kinase 4 (HIPK4, Homo sapiens, UniProt Q8NE63) | enzyme activity | inhibitor | 0.5 µM | control | remaining activity | 105%

Repeated from above (sample 1):
Modification | mean fluorescence intensity [a.u.]
2'F-ANA at 2 4 6 10 11 12 | 101
2'F-ANA at 3 4 8 10 11 13 15 | 204
2'F-ANA at 1 9 11 13 15 | 131
2'F-ANA at 2 6 7 8 11 12 13 | 513
